# Measured values from different studies.
# Each numbered part is a random draw from the data of one study; scales do not carry over between parts. Substitutions count along the parent as printed.

# Set 1 — method: protein-binding microarray; molecule type: double-stranded DNA, one strand shown; medium: in vitro; tested at: 2540 nM top; notes: 60-bp whole probe; with: salmon DNA 0.4 mg/ml; reference: random background probes; reading: higher = stronger binding; shared flanks, not repeated: GCCTAGCAC … GTCTTGATTCGCTTGACGCTGCTG
# Target: Interferon regulatory factor 3, full length, phosphomimetic (IRF3, Homo sapiens, UniProt Q14653, residues 1-427, S386D/S396D/S398D/S402D/T404D/S405D)
# Construct (chain): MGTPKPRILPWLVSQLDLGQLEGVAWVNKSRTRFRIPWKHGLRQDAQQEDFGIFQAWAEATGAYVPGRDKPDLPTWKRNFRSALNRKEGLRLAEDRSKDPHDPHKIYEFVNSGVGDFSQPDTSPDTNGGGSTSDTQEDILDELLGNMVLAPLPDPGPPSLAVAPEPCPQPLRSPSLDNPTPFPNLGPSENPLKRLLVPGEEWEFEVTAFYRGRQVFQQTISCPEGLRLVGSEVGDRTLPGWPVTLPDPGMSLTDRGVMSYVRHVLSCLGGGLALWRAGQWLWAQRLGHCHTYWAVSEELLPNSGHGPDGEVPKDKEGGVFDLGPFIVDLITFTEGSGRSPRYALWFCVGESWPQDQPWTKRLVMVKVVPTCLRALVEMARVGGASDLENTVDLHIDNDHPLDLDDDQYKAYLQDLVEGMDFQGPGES
Strand,fitted relative affinity [z-score]
TTAAATTTCAGTATCGATTAGTGCTAG,2.87
TTAGGACTGGACTATCTGTTAGTGCTA,-0.465
TCAAGATTTTTTTTCCTACTGTGCTAG,0.454
TTAGATATCACTCTCGATTAGTGCTAG,1.67
TTAGATCTTAGTCTCGATTAGTGCTAG,0.153
TTACGACTGGGTATCGGTTAGTGCTAG,0.426
GACGGACAGGGTTTCGGGACGTGCTAG,1.03
TTAGATTCCAGGTTCGATTAGTGCTAG,1.65
TCATATTTTTTTCTAATACTGTGCTAG,0.923
TTAGGTATCGGTCGCGGTTAGTGCTAG,1.08
TCATGCTTGGGTCTGGGACTGTGCTAG,-0.988
GACGGTTTCGGTTTCGGGATGTGCTAG,10.4
GACGGTTGCCTTATCCTGACGTGCTAG,3.44
TTAGGTTTCGGTTCTGGTTAGTGCTAG,10.9
GACGGTTTCCCTCTCCTGACGTGCTAG,8.19
TTAGGACTGGTTCTCCTTTAGTGCTAG,0.713
GACGCTATCGGGTTTCGGGACGTGCTA,1.31
CCTCCCCTTGCTTTCCAATTGTGCTAG,1.53
TTAGGTATCGGTCTCGCTTAGTGCTAG,3.99
GACGATCTCTGACTGGAGACGTGCTAG,0.265
CTTGGGCTCTTCTCTGAAGACGTGCTA,-0.184
GAAGGTTTCGACACTGGGGACGTGCTA,2.38
GAAGGTTTCGGACTGGGGACGTGCTAG,4.13
GACGGTATCGGGTTCCGGGACGTGCTA,2.22
GCAAGAACAGCTGGTGGGCAGTGCTAG,-1.02

# Set 2 — method: RNA Bind-n-Seq; molecule type: RNA; medium: in vitro; tested at: 365 nM; reference: no-protein control; reading: higher = stronger binding
# Target: RNA binding protein fox-1 homolog 2, RRM domain, GST-SBP tag (RBFOX2, Homo sapiens, UniProt O43251-10, residues 100-194)
# Notes: natural RNA segment, single round, ends assumed
# Shared flanks, not repeated: GGGAGUUCUACAGUCCGACGAUC … UGGAAUUCUCGGGUGCCAA
# Residues (chain): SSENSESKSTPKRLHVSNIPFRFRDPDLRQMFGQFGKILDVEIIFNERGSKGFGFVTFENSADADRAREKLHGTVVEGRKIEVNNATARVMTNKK
Strand,RBNS enrichment (R)
ACUGCCAAAAUACAUUGACCGUAGUAGCUGUUCAACUCCUAGUACUUAGAAAUACACGUAUGGUUAAUGUUCAGUCCAACAAACCACACACAGUAAAUGUUUAUUAAUAG,0.538
UUAUUUAUAAGGGAAUGCCUUUAAAAGCACCCAAGUCACCUGUUGAACACUUUGCUGCUUAGAAAUUUCUUCCGCUAGUUAACCUAAAUCAUCUCUCUCAAGUUCAAAGU,0.6
UUGAAAAUGAUCCCUCUAAAAUGCUGUUGAGCUUGUGUUCAGUGUAGCAGGAGGAUCUGAACUUUUCCUGGAGAGGAGGUGAUCGGGAUGCCAUUUGGCAGCUUAAGCAC,0.859
GGCUUGUGUACAGAUUGCUCUAUCCCAGAAGCAAGCCUUGGUUUGUUGAAGAGCUUUUCAUGUAUAGUAAACCAUGAUUCUGAGAGAAUCGAUUCUCCAAGGAGUCCUUC,0.254
GUGAGCUGUCUUCAUUUCUCUGUGCUAUGUCCAGAUGUGGGGUUGCUGCAGCCGGGGUUCUAUGGCAAGUGCCAGUUGCAGGGCUAACCUUGUGCAACGUUCCCCAACAC,1.36
GAGGCCACCUAGCAAGGUAGUAACUAGUCUAACCUGUGCUAACAUUAGGGCACAACCUGUUGGAUAGUUUUAGCUUCCUGUGAACAUUUGUAACCACUGCUUCAGUCACC,0.448
UGAGAGUAGACCUGGUUACCGGCAGUGCAUGAUGUCAGGGUCAGCCUGAAGCUAUUGCUGCUCGUCUACCAGGAGGAUGUGGAGAUCUUUAGACACGAAAUGCGUGCUAG,2.47
UCACUUGGAUCUUGUGGUGAGGACGGCCCCAUCUUUCUUGCCACAGAUUGAGGCCACUUUUGAGCAAGGGAGAUCCUGGAGUUAAGACAGGUGUUGGGGGCAGCCUGUAU,0.899
UCUGUAAAAGGCUGCAUAAAUGUUAGUUGGCACAUAAAGACAAUUGUAGAAGUUGAAAAAUGAUUGCUAUAUUUCAAUGUUUAUUCCCACUCAACAUACUGCCUUCUAAG,0.724
UUUCACACUUCAGCAAACAUAAGGAGGACAGCUUUGUUAAUAGCUAAAAAGUACAAAUUAAAAGAUUUGAGAAAGUGGUAUUUUUUUCUGAAAGCAAACAAUGGCUUGUA,0.805
GUGGCCUUUUGUGAUGGUUUUAUUUUCUGUUAACACUGUGUCCUGGGGGGGCUGGGAAGUCCCCUGCAUCCCAUGGUACCCUGGUAUUGGGACAGCAAAAGCCAGUAACC,0.402
GAGGUGCCAUCUCUACCUCUGACACAGCCUGUCUGCCUUGAGACUGAGGAAGGCACAGGCAAGCAAGGAGCCAUGAACCACAGGGCCCCAGCCAGCACAGGAUUUGUCCU,0.422

# Set 3 — method: EMSA with sequencing; molecule type: double-stranded DNA, one strand shown; medium: in vitro; tested at: 10 and 20 nM; reference: negative control set to 0; reading: higher = stronger binding
# Target: Hepatocyte nuclear factor 3-alpha (Foxa1, Mus musculus, UniProt P35582, residues 1-468, full length assumed)
# Notes: whole designed probe, mean of two concentrations, ends assumed
# Shared flanks, not repeated: GTGAGCGGTGCCCATTGATGGGGAAC … TTTCACTGGGATCGTGGGGAC
# Construct (chain): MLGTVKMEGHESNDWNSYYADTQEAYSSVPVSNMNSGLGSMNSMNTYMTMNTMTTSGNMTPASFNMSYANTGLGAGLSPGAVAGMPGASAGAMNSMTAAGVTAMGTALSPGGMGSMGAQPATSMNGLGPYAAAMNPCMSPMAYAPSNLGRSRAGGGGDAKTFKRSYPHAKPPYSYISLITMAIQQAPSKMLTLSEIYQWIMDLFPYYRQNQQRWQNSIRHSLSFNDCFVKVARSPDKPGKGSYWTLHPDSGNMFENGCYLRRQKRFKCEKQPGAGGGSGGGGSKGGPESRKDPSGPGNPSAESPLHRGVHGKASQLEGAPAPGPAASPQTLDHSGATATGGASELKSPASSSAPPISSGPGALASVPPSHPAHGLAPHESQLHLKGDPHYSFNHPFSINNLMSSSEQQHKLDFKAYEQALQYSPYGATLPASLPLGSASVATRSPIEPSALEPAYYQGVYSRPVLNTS
Strand,normalised bound fraction [ratio]
ATCTTCCCCCTCTTCCTTGCCCCACCAGCTCACCTTCCCGGGTTATTTGCAGATAGGAAAATAAATAAAGCCGGCATTCGTTAACCCTCTTCTGGCGCAAACTGCTGTTTGCTCTGGATGAATCATGGTCCTTTGGCGACGCCAGGCTCCGGGAGAGCAAAGCACCGTGTCAGGGGGGGGTCCCCCGCTGATA,0.328
ATCTTCCCCCTCTTCCTTGCCCCACCAGCTCACCTTCCCGGGTATCTGCAAATAAGCAAAGTAAACAAAGCCGGCATTCGTTAACCCTCTTCTGGCGCAAACTGCACATTGGTCTGGATGAATCATGGTCCTTTGGCGACGCCAGGCTCCGGGAGAGCAAAGCACCGTGTCAGGGCCATGATCCGGGGTGGCC,0.487
ATCTTCCCCCTCTTCCTTGCCCCACCAGCTCACCTTCCCGGGTTGTTTACTTTGAGGAAATTAATATAAGCCGGCATTCGTTAACCCTCTTCTGGCGCAAACTGCTGTTTGCTCTGGATGAATCATGGTCCTTTGGCGACGCCAGGCTCCGGGAGAGCAAAGCACCGTGTCAGGGCCATGATCCGGGGTGGCC,0.302
ATCTTCCCCCTCTTCCTTGCCCCACCAGCTCACCTACGGGGGTTATTTGCAGATAGGAAAATAAATAAAGCCGGCATTCGTTAACGCAGTTCACGCGCATACTGCTGTTTGCTCTGCATCTAACATGGTCCTTACGCGAGGCGTGGCTCCGGGAGAGCAAAGCACCGTGTCAGGCGCATGATCCGGGGTGGCC,0.364
TTAATTAAAGCTCAGATGTCTTTCCCAGGGCTGACTGTATTATTAGAGAATGCTTTTAGTAGATTCTCACATAGTTGGTAAAGGAATCTGGATGTTGACCTAGCTGTGATGTAACAGTAGCAACAGAGGGTGTCAGACAGCAGGGTCAATTTAACAAGGAAACACAGCTCATGTTACCAAAGGGTTTCTGTGT,0.00342
CAGCCTGCAGTGCGCTCAGTTAAACAATTCCAAATCAAGGAATTTTGTCTGATACAAGGAATTTGGGGTGTGTTTTCCTAACATGCACCCTGGGTAATTTGACTGGGGGGGGGGGCCATTTCCTGACCCAGCTGAAGCCAATATGCATTGCGGCCACAAGGTGGCGCGTCTGGGCCTGGCAAACCCCTGTGCT,0.0357
ATCTTCCCCCTCTTCCTTGCCCCACCAGCTCACCTTCCCGGGTTGTTTACTTTGAGCAAAGTAAACAAAGCCGGCATTCGTTAACCCTCTTCTGGCGCAAACTGCCAAAGTAAACAGATGAATCATGGTCCTTTGGCGACGCCAGGCTCCGGGAGAGCAAAGCACCGTGTCAGGGCCATGATCCGGGGTGGCC,0.562
ATCTTCCCCCTCTTCCTTGCCCCACCAGCTCACCTTCCCGGGTTATTTGCAGATAGGAAAATAAATAAAGCCGGCATTCGTTAACCCTCTTCTGGCGCACCTGTTAAGTTGCTCTGGATGAATCATGGTCCTTTGGCGACGCCAGGCTCCGGGAGAGCAAAGCACCGTGTCAGGGCCATGATCCGGGGTGGCC,0.343

# Set 4 — method: protein binding microarray; molecule type: double-stranded DNA, one strand shown; medium: in vitro; tested at: not given; reference: not given; reading: higher = stronger binding
# Target: Histone acetyltransferase KAT6A, winged helix 1, GST fusion (KAT6A, Homo sapiens, UniProt Q92794, residues 1-85)
# Notes: 8-mer, flanks averaged, mean of 2 arrays, mostly near background
# Target sequence (chain): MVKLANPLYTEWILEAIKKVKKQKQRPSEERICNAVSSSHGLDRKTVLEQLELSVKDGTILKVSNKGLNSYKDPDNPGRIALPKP
Strand,E-score
ATTGAGAG,-0.0865
CGAGCCTC,0.018
ACCAGAAA,-0.272
AAAGAAAG,-0.219
AATGAGAT,-0.145
CCAGCGCG,0.356
GAGGTCCA,-0.146
AGATCGAC,-0.0985
AAGCAACT,-0.213
CGGACAAG,0.202
CAATCGAA,-0.111
TGACACAA,-0.11
AATAGATC,-0.104
GGCAAAAC,0.0106
AACTCATC,-0.0328
TTTCAAAA,-0.222
CAAACATG,0.00639
CCCATCCA,-0.241
CCTGCAGC,-0.227
AGGTCCTA,-0.16
GAGCTACA,-0.186
AAAACCGC,0.206
AAGCCATT,-0.0566
GCATAGCC,-0.0159

# Set 5 — target: CCND2, cyclin fold, Cln2 fusion (human); method: yeast growth competition, sequencing; medium: yeast; notes: weak parent motif; reference: not given; reading: higher = stronger binding
# Parent: RB1 docking peptide (human); PKPLKKLRFDIEG; partner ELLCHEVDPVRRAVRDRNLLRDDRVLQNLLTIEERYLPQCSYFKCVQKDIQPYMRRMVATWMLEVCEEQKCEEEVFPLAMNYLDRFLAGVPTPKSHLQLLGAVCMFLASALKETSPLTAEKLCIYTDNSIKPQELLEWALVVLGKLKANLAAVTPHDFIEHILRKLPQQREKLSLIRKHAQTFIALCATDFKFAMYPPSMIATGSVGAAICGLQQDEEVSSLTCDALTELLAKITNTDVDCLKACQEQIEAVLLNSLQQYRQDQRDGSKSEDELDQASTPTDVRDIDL
Change,normalised enrichment score
L7M,0.144
G13F,0.309
L7P,0.263
P3Y,0.357
L4H,0.165
K5A,-0.11
L7T,0.00501
I11E,-0.0713
K6F,0.0811
K2I,0.507
F9C,0.206
K5R F9L,-0.307
L7F,0.21
R8G,-0.314
K6W,0.254
P3H,-0.384

# Repeated from above (set 4):
Strand,E-score
AACTCATC,-0.0328
TTTCAAAA,-0.222
CCTGCAGC,-0.227
ACCAGAAA,-0.272
TGACACAA,-0.11
CCAGCGCG,0.356
GAGCTACA,-0.186
CGGACAAG,0.202
CAAACATG,0.00639
AATGAGAT,-0.145
AAGCCATT,-0.0566
CCCATCCA,-0.241
AAAGAAAG,-0.219
